# Earlier results, collected from citations in different studies.
# Each line is one published result; not all experiments were run side by side. Numbers after ± are the reported error.
SMILES,organism,assay,test system,setting,scale,measurement,result
C[C@](C#N)(COc1cc(C#N)ccc1C(F)(F)F)NC(=O)c1ccc(SC(F)(F)F)cc1,gastrointestinal nematodes,,"resistant to benzimidazoles, levamisole and macrocyclic lactones, sheep",,,efficacy,~100%
CC1CS(=O)(=O)CCN1/N=C/c1ccc([N+](=O)[O-])o1 (stereo not shown),Trypanosoma evansi,,Tansui,,,IC50,2.62 ± 1.4 µM
Clc1cc(Br)ccc1-c1ccc(CNCC2CCNCC2)o1,Trypanosoma brucei brucei,,Squib 427,,,IC50,0.1 µM
CCCCc1cc2c(=O)c(C(=O)OC)c[nH]c2cc1OCCOc1ccccc1,Plasmodium cynomolgi,,"sporozoite, rhesus monkey",7 days,,curative dose,15 mg/kg
CN1CCN(C(=O)N[C@@H](Cc2ccccc2)C(=O)N[C@H](/C=C/S(=O)(=O)c2ccccc2)CCc2ccccc2)CC1,Trypanosoma brucei,parasite growth,,,,GI50,7 µM
Cc1cc(Nc2ccc(C)c(Cl)c2)n2nc(C(F)(F)F)nc2n1,Trypanosoma brucei rhodesiense,,STIB 900,,,IC50,15.9 µM
O=C(N[C@@H](Cn1ccnc1)c1ccc(Cl)cc1Cl)c1ccc(-c2nnc(-c3ccccc3)o2)cc1,Trypanosoma cruzi,,"Tulahuen, mouse, Chagas disease model",dose not given,,survival,100%
CCCCCCCCCCCCCC#CC(=O)O,Gram-positive cocci,growth,incl. penicillin-resistant Staphylococcus aureus,,,active concentration,21.4 to 56.8 µM
COCCNC(=O)c1ccc(OC2CCN(Cc3ccc(F)c(F)c3)CC2)c(Cl)c1,Trypanosoma brucei rhodesiense,,STIB 900,,,IC50,16.1 µM
CCOc1ccc2cc(-c3nn(CC4CCN(C)CC4)c4ncnc(N)c34)ccc2c1,Neospora caninum,,pregnant mice,dose not given,,protection against vertical transmission,84%
N=C(N)c1ccc(OCCCCCOc2ccc(C(=N)N)cc2)cc1,Trypanosoma brucei brucei,cell growth,GUTat3.1,,,IC50,0.041 ± 0.0023 µM
Cc1cc(Nc2ccc(C(F)(F)F)cc2)n2ncnc2n1,Plasmodium berghei,,mouse,"oral, 50 mg/kg 1 times daily for 4 days",,parasitaemia suppression,71%
Cc1ccc(C(=O)Nc2ccc(S(=O)(=O)O)c3cc(S(=O)(=O)O)cc(S(=O)(=O)O)c23)cc1NC(=O)c1cccc(NC(=O)Nc2cccc(C(=O)Nc3cc(C(=O)Nc4ccc(S(=O)(=O)O)c5cc(S(=O)(=O)O)cc(S(=O)(=O)O)c45)ccc3C)c2)c1,Trypanosoma brucei rhodesiense,cell growth,IL1501,,,IC50,0.076 ± 0.011 µM
C[C@H]1c2cccc(O)c2C(=O)C2=C(O)[C@]3(O)C(=O)C(C(N)=O)=C(O)[C@@H](N(C)C)[C@@H]3[C@@H](O)[C@@H]21,Brugia malayi,Wolbachia depletion above 90%,SCID mouse,exposure equivalent to human 100 mg/day,,treatment duration,6 week
Cc1ccc(C(=O)c2oc3ccc4c(C)cc(=O)oc4c3c2C)cc1,Trypanosoma brucei rhodesiense,,STIB 900,,,IC50,> 32 µM
NCCCC(N)(C(=O)O)C(F)F (stereo not shown),Trypanosoma congolense,,IL3000,,,IC50,16.1 ± 2.93 µM
COc1ccc2sc(N(Cc3cccnc3)C(=O)c3ccc(C#N)cc3)nc2c1,Trypanosoma brucei brucei,,Squib 427,,,IC50,> 32 µM
Clc1ccc(COC(Cn2ccnc2)c2ccc(Cl)cc2Cl)c(Cl)c1 (stereo not shown),Candida albicans,item: YDC1,,concentration not given,relative to: untreated,fold change,2.1 fold
CO/N=C1\CN(c2nc3c(cc2F)c(=O)c(C(=O)O)cn3C2CC2)CC1CN (stereo not shown),Streptococcus pyogenes,,,,,MIC90,0.06 µg/mL

# Some of these lines once more:
SMILES,organism,assay,test system,setting,scale,measurement,result
Cc1cc(Nc2ccc(C(F)(F)F)cc2)n2ncnc2n1,Plasmodium berghei,,mouse,"oral, 50 mg/kg 1 times daily for 4 days",,parasitaemia suppression,71%
